# Published values of several laboratories.
# A part holds a random share of what one study measured.

# Series 1 — method: protein-binding microarray; form: double-stranded DNA, one strand shown; matrix: in vitro; concentration: not given; direction: higher = stronger binding
# Target: Max-binding protein MNT, bHLH-zipper, MAX partner unstated (MNT, Homo sapiens, UniProt Q99583, residues 220-300)
# Notes: k-mer, scored over probes, only values ≥0.25
# Target sequence (chain): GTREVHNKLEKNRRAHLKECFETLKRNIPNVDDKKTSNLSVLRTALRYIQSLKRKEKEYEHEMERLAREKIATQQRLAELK
Strand,E-score
AAGCGTGA,0.341
CGCGCGCG,0.304
AACCGCGT,0.346
ATGTGTGG,0.277
CCACCCCA,0.398
GCGCCGCA,0.292
CCCCGCCG,0.338

# Series 2 — method: protein-binding microarray; form: double-stranded DNA, one strand shown; matrix: in vitro; concentration: 250 nM; notes: 60-bp whole probe; added: salmon DNA 0.4 mg/ml; reference: random background probes; direction: higher = stronger binding; shared flanks, not repeated: GCCTAGCAC … GTCTTGATTCGCTTGACGCTGCTG
# Target: Interferon regulatory factor 7, full length, phosphomimetic (IRF7, Homo sapiens, UniProt Q92985, residues 1-503, S101K/S471D/S472D/S475D/S476D/S477D/S483D/S484D/S487D)
# Chain of UniProt Q92985 (whole entry, unmodified, looked up): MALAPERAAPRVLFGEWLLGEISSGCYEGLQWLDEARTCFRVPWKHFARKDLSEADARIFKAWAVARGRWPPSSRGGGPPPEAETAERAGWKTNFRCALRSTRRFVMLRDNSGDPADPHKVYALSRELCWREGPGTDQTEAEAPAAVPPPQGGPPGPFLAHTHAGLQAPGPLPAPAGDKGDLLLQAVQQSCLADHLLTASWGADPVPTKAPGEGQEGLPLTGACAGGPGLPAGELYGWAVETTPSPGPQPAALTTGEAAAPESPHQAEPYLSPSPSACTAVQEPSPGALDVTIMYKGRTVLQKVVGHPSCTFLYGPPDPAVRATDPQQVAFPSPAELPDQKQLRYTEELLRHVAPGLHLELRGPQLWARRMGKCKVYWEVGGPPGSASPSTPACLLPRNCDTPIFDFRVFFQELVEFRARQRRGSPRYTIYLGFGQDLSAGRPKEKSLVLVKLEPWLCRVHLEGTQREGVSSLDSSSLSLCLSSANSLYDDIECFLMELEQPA
Strand,log fluorescence [z-score]
GACGGTATCTACACTGGGGACGTGCTA,-0.118
CTAGTTTTTACTTTCTGAATGTGCTAG,2.35
TTCCTTTCTCTTCCGTTAGCGTGCTAG,2.5
TGCATTTTTTTTTTCTACTTGTGCTAG,0.962
TTAGATCTCAGACTGGTTTAGTGCTAG,0.051
GACGGACTGGGTTTCGGAACGTGCTAG,3.64

# Series 3 — method: protein binding microarray; form: double-stranded DNA, one strand shown; matrix: in vitro; concentration: not given; reference: not given; direction: higher = stronger binding
# Target: Histone acetyltransferase KAT6A, winged helix 1, GST fusion (KAT6A, Homo sapiens, UniProt Q92794, residues 1-85)
# Notes: 8-mer, flanks averaged, mean of 2 arrays, mostly near background
# Target sequence (chain): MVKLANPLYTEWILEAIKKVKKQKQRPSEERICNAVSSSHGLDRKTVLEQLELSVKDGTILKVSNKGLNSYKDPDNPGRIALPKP
Strand,E-score
ACGGACTG,0.0561
GTGTTAAC,0.114
CGATCGTA,-0.113
AATCACAG,-0.272

# Further values, each from its own experiment
Molecule,target,test,test system,setting,scale,measurement,value
"PhoQ, residues 284 288 289 292 302 303 QWGLFV","PhoP, residues 12 14 15 18 19 LHHVQ (Escherichia coli, UniProt P23836)","Sort-seq, refers to: YFP reporter",E. coli,"PhoQ-PhoP variant library, added: 10 µM Mg2+","reference: high Mg2+ state, higher = stronger signaling",fold induction,12.9

# Some of these lines once more (series 1):
Strand,E-score
CGCGCGCG,0.304
CCACCCCA,0.398
